{"data": "Published values pooled from the literature", "Voltage-dependent P/Q-type calcium channel subunit alpha-1A": "Voltage-dependent P/Q-type calcium channel subunit alpha-1A (Homo sapiens, UniProt O00555)", "UCHL1": "Ubiquitin carboxyl-terminal hydrolase isozyme L1 (UCHL1, Homo sapiens, UniProt P09936)", "note": "Lines come from different studies, so protocols differ. “And” joins repeats or separate records; there may be more than shown. ± marks the error that the study gave."}
{"target": "Glutamate NMDA receptor; GRIN1/GRIN2A (Homo sapiens, UniProt Q05586+Q12879)", "test": "proton inhibition of current, two-electrode voltage clamp", "test system": "Xenopus oocytes", "conditions": "concentration not given, current ratio pH 6.8 over pH 7.6, together with: positive allosteric modulator 10 µM", "endpoint": "inhibition", "value": "62 ± 5.5%", "SMILES": "C[C@H](CCC(C)(C)O)[C@H]1CC[C@H]2[C@@H]3CC=C4C[C@@](C)(O)CC[C@]4(C)[C@H]3CC[C@]12C"}
{"target": "PDGFRA (Homo sapiens, UniProt P16234, V561D)", "conditions": "0.01 µM", "endpoint": "inhibition", "value": "30 to 90%", "SMILES": "[2H]c1cc(C)c(NC(=O)c2cnc(Nc3cc(N4CCCCC4)nc(C)n3)s2)c(Cl)c1"}
{"target": "Voltage-dependent P/Q-type calcium channel subunit alpha-1A", "test": "ion current, antagonist", "test system": "HEK293", "conditions": "30 µM", "endpoint": "inhibition", "value": "5%", "SMILES": "NCCNC(=O)c1ccc(Cl)cn1"}
{"target": "UCHL1", "test": "covalent, intact protein LC-MS", "conditions": "12.5 µM", "endpoint": "labelling", "value": "25.3%", "SMILES": "N#CC(=Cc1ccccc1OCc1ccccc1)C(=O)NC(N)=O"}
{"target": "Voltage-dependent P/Q-type calcium channel subunit alpha-1A", "test": "ion current, antagonist", "test system": "HEK293", "conditions": "10 µM", "endpoint": "inhibition", "value": "94%", "SMILES": "CN[C@H]1CC[C@@H](c2ccc(Cl)c(Cl)c2)c2ccccc21"}
{"target": "Volume-regulated anion channel subunit LRRC8C, part LRRC8A IL1 chimera (LRRC8C, Homo sapiens, UniProt Q8TDW0, Y126F)", "test": "ion current, inhibitor, whole-cell patch clamp", "test system": "HCT LRRC8-/- cells", "conditions": "0.1 µM, +100 mV", "endpoint": "inhibition", "value": "17.8% and 37.8% and 13% and 31.4% and 16.7%", "SMILES": "O=C(Nc1cccc2c(=O)cc(-c3nnn[nH]3)oc12)c1ccc(OCCCCc2ccccc2)cc1"}
{"target": "UCHL1", "test": "covalent, intact protein LC-MS", "conditions": "12.5 µM", "endpoint": "labelling", "value": "34.1%", "SMILES": "N#CC(=Cc1ccccc1OC(F)F)C(=O)Nc1ccccc1Cl"}
{"target": "PDE4B (Homo sapiens, UniProt Q07343)", "test": "enzyme activity", "conditions": "10 µM, together with: [3H]cAMP", "endpoint": "inhibition", "value": "49%", "SMILES": "CCc1nn(C)c2nc(-c3ccc(C(=O)O)cc3)nc(NCc3ccc(F)cc3)c12"}
{"target": "JAK family kinases (human)", "test": "kinase activity, inhibitor, radiometric kinase", "conditions": "50 nM, together with: ATP 10 µM", "endpoint": "inhibition", "value": "> 50%", "SMILES": "O=C(N[C@@H](c1ccccc1)[C@H]1CCCN1)C1=CN(c2ncnc3[nH]ccc23)CCS1"}
{"target": "Voltage-gated potassium channel KCNC4 (KCNC4, Homo sapiens, UniProt Q03721)", "test": "ion current, inhibitor, whole-cell patch clamp", "conditions": "10 µM", "endpoint": "inhibition", "value": "0% and 3.6% and 0.87%", "SMILES": "CC(C)c1noc2ncc(C(=O)c3ccccc3O)cc12"}
{"target": "Voltage-dependent P/Q-type calcium channel subunit alpha-1A", "test": "ion current, antagonist", "test system": "HEK293", "conditions": "30 µM", "endpoint": "inhibition", "value": "-2%", "SMILES": "CCn1cc(C(=O)O)c(=O)c2cc(F)c(N3CCNCC3)nc21"}
{"target": "EPHA7 (Homo sapiens, UniProt Q15375)", "test": "ATP probe binding, KiNativ profiling, refers to: activation loop probe site", "test system": "THP-1 cell lysate", "conditions": "0.01 mM", "endpoint": "inhibition", "value": "-8.6%", "SMILES": "CC[C@@H]1[C@H](F)C(=O)N[C@@H]1COc1nccc2cc(C(N)=O)c(OC)cc12"}
{"target": "Voltage-dependent P/Q-type calcium channel subunit alpha-1A", "test": "ion current, antagonist", "test system": "HEK293", "conditions": "30 µM", "endpoint": "inhibition", "value": "101%", "SMILES": "Fc1ccc([C@@H]2CCNC[C@H]2COc2ccc3c(c2)OCO3)cc1"}
{"target": "Rab GDP dissociation inhibitor beta, with Rab1A (Homo sapiens, UniProt P50395)", "test": "GDI2-Rab1A interaction, NanoLuc complementation", "conditions": "6.25 µM", "endpoint": "inhibition", "value": "59.6%", "SMILES": "Cc1cc(C)cc(COc2cc3c(cc2OCc2cc(C)cc(C)c2)[C@H]2C[C@](O)(Cc4cn(Cc5cccnc5)nn4)C[C@H](C)N2CC3)c1"}
{"target": "LATS2 (Homo sapiens, UniProt Q9NRM7)", "test": "ATP probe binding, KiNativ, refers to: Lys2 site", "test system": "HEK293T cell lysate", "conditions": "0.1 µM", "endpoint": "inhibition", "value": "38.4%", "SMILES": "Cc1cc(-c2ccnc3[nH]cc(F)c23)cc(F)c1[C@@]1(O)[C@H](C)CN(C(=O)CN)C[C@@H]1C"}
{"target": "Kcna3 (Mus musculus, UniProt P16390)", "test": "potassium current", "test system": "L929", "conditions": "25 µM", "endpoint": "inhibition", "value": "40%", "SMILES": "O=c1ccc2c(OCCCCO)c3ccoc3cc2o1"}
{"target": "LATS1 (Homo sapiens, UniProt O95835)", "test": "ATP probe binding, KiNativ, refers to: Lys2 site", "test system": "HEK293T cell lysate", "conditions": "0.1 µM", "endpoint": "inhibition", "value": "12.6%", "SMILES": "Cc1cc(-c2ccnc3[nH]cc(F)c23)cc(F)c1[C@@]1(O)[C@H](C)CN(C2CCS(=O)(=O)CC2)C[C@@H]1C"}
{"target": "Voltage-dependent P/Q-type calcium channel subunit alpha-1A", "test": "ion current, antagonist", "test system": "HEK293", "conditions": "30 µM", "endpoint": "inhibition", "value": "34%", "SMILES": "CCCN1C[C@H](CSC)C[C@@H]2c3cccc4[nH]cc(c34)C[C@H]21"}
{"note": "A few entries again:"}
{"target": "PDGFRA (Homo sapiens, UniProt P16234, V561D)", "conditions": "0.01 µM", "endpoint": "inhibition", "value": "30 to 90%", "SMILES": "[2H]c1cc(C)c(NC(=O)c2cnc(Nc3cc(N4CCCCC4)nc(C)n3)s2)c(Cl)c1"}
{"target": "Voltage-dependent P/Q-type calcium channel subunit alpha-1A", "test": "ion current, antagonist", "test system": "HEK293", "conditions": "30 µM", "endpoint": "inhibition", "value": "5%", "SMILES": "NCCNC(=O)c1ccc(Cl)cn1"}
